Assay results from different studies.
Every numbered part comes from another study and shows a few of its results, in no order.

Block 1
Target: Histone acetyltransferase KAT6A, winged helix 2, GST fusion (KAT6A, Homo sapiens, UniProt Q92794, residues 85-181)
Method: protein binding microarray
Molecule type: double-stranded DNA, one strand shown
Matrix: in vitro
Concentration: not given
Notes: 8-mer, flanks averaged, mean of 2 arrays, mostly near background
Baseline: not given
Direction: higher = stronger binding
Residues (chain): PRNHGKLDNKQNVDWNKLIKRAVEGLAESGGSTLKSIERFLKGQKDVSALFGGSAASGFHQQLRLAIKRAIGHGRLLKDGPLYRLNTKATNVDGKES
Sequence	E-score
CGGTCATC	-0.129
CTTTCTGA	0.0775
TACCCGTA	-0.141
CCCCCAAG	-0.0741
TCGTGTAA	-0.072

Block 2
Target: RNA binding protein fox-1 homolog 2, RRM domain, GST-SBP tag (RBFOX2, Homo sapiens, UniProt O43251-10, residues 100-194)
Method: RNA Bind-n-Seq
Molecule type: RNA
Matrix: in vitro
Concentration: 365 nM
Notes: natural RNA segment, single round, ends assumed
Baseline: no-protein control
Direction: higher = stronger binding
Sequence	RBNS enrichment (R)
GGGAGUUCUACAGUCCGACGAUCGUGUUCAGGUGACAGACUUUAUCAAAACUAUUGCUGUUUUGGCAUGAGUUGUGUUUCUGGACUGUUUUGUUUUCCCCUUUAGACAAAGAGCAACUUAGAAGUAUUUGCAAUGGAAUUCUCGGGUGCCAA	0.675
GGGAGUUCUACAGUCCGACGAUCAGAAAUUGAAAGUGGCUACCUUUCAUGUCAAAAAUGUUGAUCUAUUAUAAAUAAAAUGUUUUUGCAUAUGUUUUUGAUUUGGUUUGGGCUAUGCAUUUUACUUUCGUUUUUGGAAUUCUCGGGUGCCAA	1.15
GGGAGUUCUACAGUCCGACGAUCACAGAACCAAGAGUGGCAAUGCUUUGGAGAAUAGCAGUCCAGCCUAGUUAACAUGGGGAAAGAUGACAACAUUGUAUGUAGUGUUGAACCUGAAGACAUCCUACAAUGAUUGGAAUUCUCGGGUGCCAA	0.376

Block 3
Target: Interferon regulatory factor 5, full length, phosphomimetic (IRF5, Homo sapiens, UniProt Q13568-2, residues 1-514, S451D/S453D/S456D/S462D)
Method: protein-binding microarray
Molecule type: double-stranded DNA, one strand shown
Matrix: in vitro
Concentration: 940 nM top
Notes: 60-bp whole probe
With: salmon DNA 0.4 mg/ml
Baseline: random background probes
Direction: higher = stronger binding
Sequence	fitted relative affinity [z-score]
GCCTAGCACTCCTCTCTGCCACTCAGGTAGTGCTAGGTCTTGATTCGCTTGACGCTGCTG	1.5
GCCTAGCACGACGATTTCGGGTTACGAGACGTGCTAGTCTTGATTCGCTTGACGCTGCTG	1.06
GCCTAGCACCTGCACTCCAGTCTGGGAGAGTGCTAGGTCTTGATTCGCTTGACGCTGCTG	-0.334

Mixed results
Molecule	target	assay	test system	conditions	scale	endpoint	result
PhoQ, residues 284 288 289 292 302 303 SSTLLI	PhoP, residues 12 14 15 18 19 LHTVM (Escherichia coli, UniProt P23836)	Sort-seq, refers to: YFP reporter	E. coli	PhoQ-PhoP variant library, with: 10 µM Mg2+	baseline: high Mg2+ state, higher = stronger signaling	fold induction	12.8

A few entries again (block 1):
Sequence	E-score
CGGTCATC	-0.129
